Results pooled from the literature.
Lines come from different studies, so protocols differ. ± gives the spread as reported.
FKBP4 FK1 domain: Peptidyl-prolyl cis-trans isomerase FKBP4, FK1 domain (FKBP4, Homo sapiens, UniProt Q02790)
UniProt Q02790, sequence (whole entry, looked up): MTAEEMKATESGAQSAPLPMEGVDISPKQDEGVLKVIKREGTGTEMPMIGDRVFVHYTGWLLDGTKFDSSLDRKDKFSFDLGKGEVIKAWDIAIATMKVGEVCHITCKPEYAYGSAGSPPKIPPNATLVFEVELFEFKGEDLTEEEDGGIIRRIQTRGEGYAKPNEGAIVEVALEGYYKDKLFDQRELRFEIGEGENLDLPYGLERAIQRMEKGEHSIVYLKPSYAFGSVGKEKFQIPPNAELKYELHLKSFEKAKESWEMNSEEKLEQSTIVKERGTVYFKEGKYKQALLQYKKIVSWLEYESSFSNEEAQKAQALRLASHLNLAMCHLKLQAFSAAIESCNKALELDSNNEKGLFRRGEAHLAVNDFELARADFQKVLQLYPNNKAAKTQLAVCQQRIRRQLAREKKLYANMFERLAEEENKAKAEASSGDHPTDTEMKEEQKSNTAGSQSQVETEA
Tumor necrosis factor receptor superfamily member 1A extracellular domain: Tumor necrosis factor receptor superfamily member 1A, extracellular domain (Homo sapiens, UniProt P19438)
UniProt P19438, sequence (whole entry, looked up): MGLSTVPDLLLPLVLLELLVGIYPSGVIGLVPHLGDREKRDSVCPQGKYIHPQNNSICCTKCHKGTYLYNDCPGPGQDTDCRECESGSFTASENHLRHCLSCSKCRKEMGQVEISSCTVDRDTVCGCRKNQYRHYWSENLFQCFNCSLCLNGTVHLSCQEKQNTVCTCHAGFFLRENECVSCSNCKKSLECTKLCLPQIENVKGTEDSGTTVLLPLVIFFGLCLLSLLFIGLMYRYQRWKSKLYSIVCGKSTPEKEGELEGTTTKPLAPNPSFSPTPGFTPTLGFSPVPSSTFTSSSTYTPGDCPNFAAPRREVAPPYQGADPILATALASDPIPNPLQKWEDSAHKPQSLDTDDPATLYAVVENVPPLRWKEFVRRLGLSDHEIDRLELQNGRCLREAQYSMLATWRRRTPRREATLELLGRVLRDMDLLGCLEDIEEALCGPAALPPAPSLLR
GATD3: Glutamine amidotransferase-like class 1 domain-containing protein 3, mitochondrial (GATD3, Homo sapiens, UniProt P0DPI2)
UniProt P0DPI2, sequence (whole entry, looked up): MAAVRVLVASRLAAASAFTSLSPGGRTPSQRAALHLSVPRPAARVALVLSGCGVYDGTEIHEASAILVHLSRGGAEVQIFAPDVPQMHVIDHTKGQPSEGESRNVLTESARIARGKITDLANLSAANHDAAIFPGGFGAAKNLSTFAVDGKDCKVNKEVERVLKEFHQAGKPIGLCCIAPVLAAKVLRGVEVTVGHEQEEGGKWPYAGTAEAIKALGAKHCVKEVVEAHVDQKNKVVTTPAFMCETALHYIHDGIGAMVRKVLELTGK
Ugcg: Ceramide glucosyltransferase (Ugcg, Mus musculus, UniProt O88693)
UniProt O88693, sequence (whole entry, looked up): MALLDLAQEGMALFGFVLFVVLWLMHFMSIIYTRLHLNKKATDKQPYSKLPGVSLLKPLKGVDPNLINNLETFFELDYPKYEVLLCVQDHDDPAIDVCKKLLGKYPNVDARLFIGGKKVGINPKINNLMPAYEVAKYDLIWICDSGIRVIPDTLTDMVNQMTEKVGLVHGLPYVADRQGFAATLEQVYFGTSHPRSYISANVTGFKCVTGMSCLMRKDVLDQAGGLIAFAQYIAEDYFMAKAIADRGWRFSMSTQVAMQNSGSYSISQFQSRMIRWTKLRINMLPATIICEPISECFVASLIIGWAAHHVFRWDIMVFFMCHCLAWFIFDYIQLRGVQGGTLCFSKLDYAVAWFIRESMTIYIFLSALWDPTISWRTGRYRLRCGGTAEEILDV
UniProt P07737, sequence (whole entry, unmodified, looked up): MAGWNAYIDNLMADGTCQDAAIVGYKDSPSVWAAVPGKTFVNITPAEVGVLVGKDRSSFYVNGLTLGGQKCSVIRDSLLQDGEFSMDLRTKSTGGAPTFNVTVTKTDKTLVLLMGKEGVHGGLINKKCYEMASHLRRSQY
UniProt P51813, sequence (whole entry, looked up): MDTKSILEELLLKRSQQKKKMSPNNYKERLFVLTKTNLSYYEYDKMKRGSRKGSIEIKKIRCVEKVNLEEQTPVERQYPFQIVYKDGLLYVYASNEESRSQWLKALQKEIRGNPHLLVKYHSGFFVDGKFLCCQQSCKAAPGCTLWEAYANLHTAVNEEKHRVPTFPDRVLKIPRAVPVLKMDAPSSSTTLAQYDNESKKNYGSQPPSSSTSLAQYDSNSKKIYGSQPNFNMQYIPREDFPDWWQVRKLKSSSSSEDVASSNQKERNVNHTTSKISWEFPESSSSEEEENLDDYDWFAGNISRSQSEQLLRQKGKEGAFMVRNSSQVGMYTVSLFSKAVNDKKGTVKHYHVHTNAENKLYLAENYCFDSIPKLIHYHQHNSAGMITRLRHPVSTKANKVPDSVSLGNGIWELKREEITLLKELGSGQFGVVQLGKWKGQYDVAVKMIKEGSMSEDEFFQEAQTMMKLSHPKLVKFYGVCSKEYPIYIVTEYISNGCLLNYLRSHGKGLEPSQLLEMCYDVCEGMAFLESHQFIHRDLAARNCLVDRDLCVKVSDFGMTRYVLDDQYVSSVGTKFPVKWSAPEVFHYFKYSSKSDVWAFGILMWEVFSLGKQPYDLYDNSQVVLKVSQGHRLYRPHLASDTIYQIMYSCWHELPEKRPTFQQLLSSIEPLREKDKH
UniProt P62937, sequence (whole entry, looked up): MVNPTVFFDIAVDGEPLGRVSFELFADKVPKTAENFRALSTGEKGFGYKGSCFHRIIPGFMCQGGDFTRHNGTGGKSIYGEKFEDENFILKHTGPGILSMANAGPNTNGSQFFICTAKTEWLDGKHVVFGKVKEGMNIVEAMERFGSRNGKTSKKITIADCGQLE
UniProt Q16611, sequence (whole entry, looked up): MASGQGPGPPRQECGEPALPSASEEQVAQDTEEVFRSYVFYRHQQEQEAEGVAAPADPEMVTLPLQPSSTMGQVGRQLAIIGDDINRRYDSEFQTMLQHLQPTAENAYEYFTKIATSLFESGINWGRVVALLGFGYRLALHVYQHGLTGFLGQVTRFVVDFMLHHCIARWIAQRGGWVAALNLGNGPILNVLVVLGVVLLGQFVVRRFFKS
UniProt O15264, sequence (whole entry, looked up): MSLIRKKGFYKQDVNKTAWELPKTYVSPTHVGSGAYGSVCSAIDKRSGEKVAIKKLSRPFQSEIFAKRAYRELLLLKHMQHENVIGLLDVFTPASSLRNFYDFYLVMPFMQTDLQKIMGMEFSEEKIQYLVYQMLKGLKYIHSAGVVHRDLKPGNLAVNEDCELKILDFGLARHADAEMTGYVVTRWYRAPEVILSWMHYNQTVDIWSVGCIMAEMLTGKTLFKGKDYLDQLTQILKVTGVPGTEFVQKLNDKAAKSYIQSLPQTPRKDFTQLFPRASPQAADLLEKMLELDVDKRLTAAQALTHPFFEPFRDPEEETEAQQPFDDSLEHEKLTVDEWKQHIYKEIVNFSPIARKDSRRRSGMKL
UniProt P30837, sequence (whole entry, looked up): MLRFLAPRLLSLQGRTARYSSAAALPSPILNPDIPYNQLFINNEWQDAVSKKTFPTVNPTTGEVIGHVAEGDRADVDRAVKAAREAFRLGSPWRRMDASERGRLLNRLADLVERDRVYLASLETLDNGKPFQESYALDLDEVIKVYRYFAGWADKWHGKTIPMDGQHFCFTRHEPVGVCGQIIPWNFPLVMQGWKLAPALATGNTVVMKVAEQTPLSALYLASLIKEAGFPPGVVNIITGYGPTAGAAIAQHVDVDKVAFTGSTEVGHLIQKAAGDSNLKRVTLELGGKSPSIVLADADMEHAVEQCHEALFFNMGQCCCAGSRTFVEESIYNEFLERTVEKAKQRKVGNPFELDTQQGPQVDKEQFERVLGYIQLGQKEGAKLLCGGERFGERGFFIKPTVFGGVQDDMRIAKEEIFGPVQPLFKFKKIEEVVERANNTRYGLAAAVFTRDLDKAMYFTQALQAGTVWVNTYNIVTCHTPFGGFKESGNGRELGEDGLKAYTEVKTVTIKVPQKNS
UniProt P01317, sequence (whole entry, looked up): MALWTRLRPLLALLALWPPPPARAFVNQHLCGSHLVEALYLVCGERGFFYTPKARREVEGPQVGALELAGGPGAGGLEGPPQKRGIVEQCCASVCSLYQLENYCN
UniProt Q9EQY0, sequence (whole entry, unmodified, looked up): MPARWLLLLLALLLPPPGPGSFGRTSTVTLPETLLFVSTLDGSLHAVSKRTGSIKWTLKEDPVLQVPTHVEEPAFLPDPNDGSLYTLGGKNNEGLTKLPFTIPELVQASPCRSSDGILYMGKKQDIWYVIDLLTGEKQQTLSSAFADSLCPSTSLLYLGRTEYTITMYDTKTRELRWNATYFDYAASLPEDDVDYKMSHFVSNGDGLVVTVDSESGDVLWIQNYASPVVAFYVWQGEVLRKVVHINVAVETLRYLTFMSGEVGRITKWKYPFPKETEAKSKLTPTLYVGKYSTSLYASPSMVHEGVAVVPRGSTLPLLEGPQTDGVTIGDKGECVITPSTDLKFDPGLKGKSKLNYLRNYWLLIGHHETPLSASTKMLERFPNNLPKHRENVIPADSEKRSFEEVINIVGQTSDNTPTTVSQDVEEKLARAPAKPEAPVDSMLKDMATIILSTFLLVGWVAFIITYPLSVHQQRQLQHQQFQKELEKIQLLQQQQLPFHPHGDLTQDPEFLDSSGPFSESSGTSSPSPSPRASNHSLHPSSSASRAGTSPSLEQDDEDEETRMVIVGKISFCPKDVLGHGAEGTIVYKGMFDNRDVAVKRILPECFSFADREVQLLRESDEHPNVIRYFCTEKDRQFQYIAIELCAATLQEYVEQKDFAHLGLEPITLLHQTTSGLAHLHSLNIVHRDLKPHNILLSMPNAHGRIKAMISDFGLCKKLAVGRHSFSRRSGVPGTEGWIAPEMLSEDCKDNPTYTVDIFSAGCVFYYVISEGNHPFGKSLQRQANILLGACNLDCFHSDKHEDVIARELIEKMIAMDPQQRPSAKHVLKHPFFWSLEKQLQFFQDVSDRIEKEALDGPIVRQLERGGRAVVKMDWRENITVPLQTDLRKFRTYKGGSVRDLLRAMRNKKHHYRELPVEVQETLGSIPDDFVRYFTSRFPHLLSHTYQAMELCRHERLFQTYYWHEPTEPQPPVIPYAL

SMILES | target or system | assay | test system | setting | quantity | value
C=CC1CN(Cc2ccccn2)C(=O)C2CCCC1N2S(=O)(=O)c1cc(Cl)cc(Cl)c1 (stereo not shown) | FKBP4 FK1 domain | competitive fluorescence polarization |  | protein 10 nM, with: 1 nM tracer | Kd | 0.092 ± 0.002 µM
CCCC(=O)Nc1ccc(-c2ccnc(C(=O)O)c2)cc1 | Tumor necrosis factor receptor superfamily member 1A extracellular domain | binding, SPR OneStep |  |  | Kd | 1030 ± 50 µM
COC1(C2=NCCN2)COc2ccccc2O1 (stereo not shown) | Alpha-2C adrenergic receptor (Mus musculus, UniProt Q01337) | [3H]compound saturation binding | HEK293 membranes, HA-tagged receptor |  | Kd | 0.00168 ± 0.00035 µM
C=CCN=S(=O)(c1cc(Cl)cc(Cl)c1)N1C2CCCC1C(C=C)CN(Cc1ccccn1)C2=O (stereo not shown) | FKBP4 FK1 domain | competitive fluorescence polarization |  | protein 10 nM, with: 1 nM tracer | Kd | > 40 µM
Cc1nn(-c2cccc(N)c2)c(=O)c2cnc(Nc3ccc(N4CCNCC4)cc3)nc12 | Mitogen-activated protein kinase 13 (MAPK13, Homo sapiens, UniProt O15264) | SelectScreen kinase |  |  | IC50 | > 10 µM
Cc1cccc2c1N(C(=O)n1ccnn1)CC2 | KAI2 (Arabidopsis thaliana, UniProt Q9SZU7, F134A) | ITC |  | F134A mutant, mean | Kd | 10.9 µM
O=C(O)c1cc(-c2ccc(F)cc2)ccn1 | Tumor necrosis factor receptor superfamily member 1A extracellular domain | binding, SPR OneStep injection |  | fragment hits, kinetic fit | Kd | 1330 ± 50 µM
CC[C@H](C)[C@H](NC(=O)[C@H](Cc1ccccc1)NC(=O)[C@H](Cc1c[nH]c2ccccc12)NC(=O)[C@H](CO)NC(C)=O)C(=O)N[C@@H](CCC(N)=O)C(=O)N[C@@H](CO)C(=O)N[C@@H](CC(C)C)C(=O)N[C@@H](CS)C(=O)N[C@@H](C)C(=O)N[C@@H](CCSC)C(=O)N[C@@H](CC(C)C)C(=O)N[C@@H](CCCCN)C(=O)N[C@@H](CCC(N)=O)C(=O)N[C@@H](Cc1ccc(O)cc1)C(=O)N[C@@H](C)C(=O)N[C@@H](CC(=O)O)C(=O)N[C@@H](CCCCN)C(=O)N[C@@H](CC(C)C)C(=O)N[C@@H](CCC(=O)O)C(=O)N[C@@H](Cc1ccccc1)C(=O)N[C@@H](CCSC)C(=O)N[C@@H](Cc1c[nH]cn1)C(=O)N[C@H](C(=O)N[C@@H](CC(C)C)C(=O)N[C@H](C(N)=O)[C@@H](C)O)[C@@H](C)CC | Bcl-2 homologous antagonist/killer (BAK1, Homo sapiens, UniProt Q16611) | binding, FP |  | pH 8 | Kd | > 20 µM
C=CC1CN(Cc2ccccn2)C(=O)C2CCCC1N2S(=O)(=NC1C=CCCC1)c1cc(Cl)cc(Cl)c1 (mixture of isomers) | FKBP4 FK1 domain | competitive fluorescence polarization |  | protein 10 nM, with: 1 nM tracer | Kd | > 40 µM
C=CC(=O)N1CCCN(C(=O)c2cc(Sc3cnc(NC(=O)C4CC4)s3)c(C)cc2OC)C[C@H]1C | Cytoplasmic tyrosine-protein kinase BMX (BMX, Homo sapiens, UniProt P51813) | binding, competition with immobilised ligand |  |  | Kd | 9.1 µM
O=C(NO)c1cnc(NC2(c3cccc(F)c3)CCCCC2)nc1 | GATD3 | inhibitor, competition pulldown | SW620 and MV4-11 lysate | 1 h | Kd | > 30.2 µM
CCC1C=CC2CCN(C(=O)C3CCC4C=CC5(CCCN5C(=O)C(Cc5ccccc5Cl)NC(C)=O)C(=O)N43)C2C(=O)N1CC(=O)OC (stereo not shown) | Profilin-1 (PFN1, Homo sapiens, UniProt P07737) | binding, NMR |  |  | Kd | 630 µM
C=CC(=O)N1CC2(CCN(c3nc(OC4CCN(CCCOC)CC4)nc4c(OCC(F)(F)F)c(-c5c(C)ccc6[nH]ncc56)c(C5CC5)cc34)CC2)C1 | GTPase KRas, GDP-bound (KRAS, Homo sapiens, UniProt P01116, A146T) | SPR |  |  | Kd | 1.39 ± 0.15 µM
O=C(COCC(F)F)Nc1ccc([C@H]2[C@@H](F)[C@@H](F)C[C@@H](F)[C@H]2F)cc1 |  | liver microsome stability | mouse liver microsomes | 1 µM | hepatic clearance | 79 mL/min/kg
Cc1c(Cl)cccc1Nc1ccccc1C(=O)O | Aldehyde dehydrogenase X, mitochondrial (ALDH1B1, Homo sapiens, UniProt P30837) | binding, SPR |  |  | Kd | 14.1 µM
O=C(O)c1ccc(-c2ccc3[nH]ccc3c2)nn1 | Tumor necrosis factor receptor superfamily member 1A extracellular domain | binding, SPR OneStep |  |  | Kd | 198 ± 87 µM
C[n+]1c(/C=C/c2ccc(N(c3ccccc3)c3ccccc3)cc2)cc(/C=C2\Sc3ccccc3N2CCCN2CCCC2)c2ccccc21 | hTERT promoter G-quadruplex DNA (human) | isothermal titration calorimetry |  | pH 7.4, 25 °C, 2% DMSO, 60 mM KCl | Kd | 28.6 µM

SMILES | target or system | assay | test system | setting | quantity | value
CC[C@H](C)[C@H](NC(=O)[C@@H](NC(=O)[C@H](CO)NC(=O)[C@@H](NC(=O)[C@@H]1CCCN1C(=O)[C@H](CC(C)C)NC(=O)[C@H](CCCNC(=N)N)NC(=O)[C@H](CO)NC(=O)[C@H](CC(N)=O)NC(=O)[C@H](C)N)[C@@H](C)O)[C@@H](C)CC)C(=O)O | Na(+)/H(+) exchange regulatory cofactor NHE-RF2 (Homo sapiens, UniProt Q15599) | binding, FP |  |  | Kd | > 1000 µM
Cn1ncc2cc(-c3cncc(Cl)c3N3CCC4(CCNC4=O)CC3)ccc21 | Serine/threonine-protein kinase/endoribonuclease IRE1 (ERN1, Homo sapiens, UniProt O75460) | cell-free assay |  | lysate | Kd | > 22 µM
OC[C@@H]1[C@@H](O)[C@H](O)[C@@H](O)CN1CCCCCCC12CC3CC(CC(C3)C1)C2 | Ugcg | enzyme activity, inhibitor, fluorescence |  |  | IC50 | 40 µM
O=C(Nc1ccc([C@H]2[C@@H](F)[C@@H](F)C[C@@H](F)[C@H]2F)cc1)C1(N2CCOCC2)CC1 |  | liver microsome stability | mouse liver microsomes | 1 µM | hepatic clearance | 71 mL/min/kg
CC(=O)OCC1C=C(C2(C)CCCCC2)CCC1COC(C)=O (single isomer, unassigned; (+)) | Peptidyl-prolyl cis-trans isomerase A (PPIA, Homo sapiens, UniProt P62937) | binding, SPR |  | pH 4.5 | Kd | > 10 µM
CC(=O)N[C@@H](CCCNC(=N)N)C(=O)N[C@H](C(=O)N[C@@H](CCCCN)C(=O)N[C@@H](CO)C(=O)N[C@@H](CCCNC(=N)N)C(=O)N[C@H](C(=O)N[C@@H](Cc1c[nH]c2ccccc12)C(=O)N[C@@H](C)C(=O)NCC(N)=O)[C@@H](C)OP(=O)(O)O)[C@@H](C)O | 14-3-3 protein epsilon (Homo sapiens, UniProt P62258) | binding, SPR |  |  | Kd | 0.119 µM
F[B-]1(F)OC(c2ccc(-n3c4ccccc4c4ccccc43)cc2)=Nc2sc3cc(C(F)(F)F)ccc3[n+]21 | Insulin, amyloid fibrils (INS, Bos taurus, UniProt P01317) | binding, fluorescence saturation |  |  | Kd | 0.243 ± 0.086 µM
CC(/C=C/C(=O)NO)=C\[C@@H](C)C(=O)c1ccc(N(C)C)cc1 | GATD3 | inhibitor, competition pulldown | SW620 and MV4-11 lysate | 1 h | Kd | > 30.2 µM
O=C(NC1CCCc2c1[nH]c1ccccc21)c1n[nH]c2c1CCC2 (stereo not shown) | Histone lysine demethylase PHF8 (PHF8, Homo sapiens, UniProt Q9UPP1) | binding |  |  | Kd | 0.24 µM
COc1cc(-c2ccc3c(c2)OCCN3C)cc(C=O)c1O | Serine/threonine-protein kinase/endoribonuclease IRE1 (Mus musculus, UniProt Q9EQY0, N772Y) | microscale thermophoresis |  |  | Kd | 18.4 µM
CCCCNc1ccc(-c2ccnc(C(=O)O)c2)cc1 | Tumor necrosis factor receptor superfamily member 1A extracellular domain | binding, SPR OneStep |  |  | Kd | 521 ± 39 µM
CCCCCCCCOCCCCCN1C[C@H](O)[C@@H](O)[C@H](O)[C@@H]1CO | Ugcg | enzyme activity, inhibitor, fluorescence |  |  | IC50 | 0.05 µM
CC[C@H](C)[C@H](NC(=O)[C@H](Cc1ccc(O)cc1)NC(=O)[C@@H](NC(=O)[C@H](CCCNC(=N)N)NC(=O)[C@@H](N)CC(=O)O)C(C)C)C(=O)N[C@@H](Cc1c[nH]cn1)C(=O)N1CCC[C@H]1C(=O)N[C@@H](Cc1ccccc1)C(=O)N[C@@H](Cc1c[nH]cn1)C(=O)O | Type-2 angiotensin II receptor (AGTR2, Homo sapiens, UniProt P50052) | binding, SPR |  |  | Kd | 5.95 µM
Cc1n[nH]c(C)c1C(c1ccc(Br)cc1)c1c(C)n[nH]c1C | Profilin-1 (PFN1, Homo sapiens, UniProt P07737, H120E) |  |  |  | Kd | 47.9 µM
C=C[C@H]1CN(Cc2ccccn2)C(=O)[C@@H]2CCC[C@H]1N2[S@@+]([O-])c1cc(Cl)cc(Cl)c1 | FKBP4 FK1 domain | competitive fluorescence polarization |  | protein 10 nM, with: 1 nM tracer | Kd | 5.21 µM
CCc1nc2cc3ccccc3cc2cc1C(=O)N1CCC[C@H]1C(=O)N[C@@H](C/C=C/C[C@H](NC(=O)[C@@H]1CCCN1C(=O)c1cc2cc3ccccc3cc2nc1CC)C(=O)N[C@@H](CCCCN)C(=O)NCCCN)C(=O)N[C@@H](CCCCN)C(=O)NCCCN | (CUG)2 RNA | SPR |  |  | Kd | 0.033 µM
CN(C)c1ccc2c(c1)C(=O)N(CCc1ccc(S(N)(=O)=O)cc1)C2=O | Carbonic anhydrase 2 (CA2, Homo sapiens, UniProt P00918) | binding |  |  | Kd | 0.27 µM

Some of these lines once more:
SMILES | target or system | assay | test system | setting | quantity | value
CC(=O)N[C@@H](CCCNC(=N)N)C(=O)N[C@H](C(=O)N[C@@H](CCCCN)C(=O)N[C@@H](CO)C(=O)N[C@@H](CCCNC(=N)N)C(=O)N[C@H](C(=O)N[C@@H](Cc1c[nH]c2ccccc12)C(=O)N[C@@H](C)C(=O)NCC(N)=O)[C@@H](C)OP(=O)(O)O)[C@@H](C)O | 14-3-3 protein epsilon (Homo sapiens, UniProt P62258) | binding, SPR |  |  | Kd | 0.119 µM
O=C(Nc1ccc([C@H]2[C@@H](F)[C@@H](F)C[C@@H](F)[C@H]2F)cc1)C1(N2CCOCC2)CC1 |  | liver microsome stability | mouse liver microsomes | 1 µM | hepatic clearance | 71 mL/min/kg
C=C[C@H]1CN(Cc2ccccn2)C(=O)[C@@H]2CCC[C@H]1N2[S@@+]([O-])c1cc(Cl)cc(Cl)c1 | FKBP4 FK1 domain | competitive fluorescence polarization |  | protein 10 nM, with: 1 nM tracer | Kd | 5.21 µM
